Assay results from different studies.
Each numbered part is a random draw from the data of one study; scales do not carry over between parts.

Sample 1
Target: Ras GTPase-activating protein-binding protein 1, full length (G3BP1, Homo sapiens, UniProt Q13283)
Chain of UniProt Q13283 (whole entry, looked up): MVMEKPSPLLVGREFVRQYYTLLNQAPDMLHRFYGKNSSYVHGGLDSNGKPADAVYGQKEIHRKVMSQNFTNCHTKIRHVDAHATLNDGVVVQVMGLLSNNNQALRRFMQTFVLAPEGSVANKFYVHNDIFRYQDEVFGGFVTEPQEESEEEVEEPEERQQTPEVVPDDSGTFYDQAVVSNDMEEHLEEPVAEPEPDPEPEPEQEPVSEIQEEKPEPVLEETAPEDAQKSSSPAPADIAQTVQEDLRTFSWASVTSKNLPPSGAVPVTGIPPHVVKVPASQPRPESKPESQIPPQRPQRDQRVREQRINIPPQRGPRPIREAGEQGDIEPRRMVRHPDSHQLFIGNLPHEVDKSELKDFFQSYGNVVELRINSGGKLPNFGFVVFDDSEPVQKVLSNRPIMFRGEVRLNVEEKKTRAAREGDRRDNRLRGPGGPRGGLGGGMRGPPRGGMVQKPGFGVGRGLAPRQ
Technique: RNA Bind-n-Seq
Molecule type: RNA
Sample: in vitro
Concentration: 200 nM
Setting: whole 134-nt RNA, ends assumed
Added: 150 mM KCl
Baseline: input library
Reading: higher = stronger binding
The log2 enrichment of `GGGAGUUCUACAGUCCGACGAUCACCAUGCAGGUGGGCAUCUUUGGGAAGUGGGGCCAGGGGGGGAUAGGGAGGGGGGUAACACUUUGGGAACAGGUGGUCCCAGGUCGUUUCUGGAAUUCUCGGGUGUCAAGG` is reported as 1.3.
`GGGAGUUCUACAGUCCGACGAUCUGGGAGGUGGAUUUUGUUUAUUUUUUUAGCUCAUUUUCAGGGGUGGGAAUUUUUUUUUAAUAUGUGUCAUGAAUAAAGUUGUUUUUGAAAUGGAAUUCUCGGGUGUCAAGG` gave a log2 enrichment of -0.0895.
For `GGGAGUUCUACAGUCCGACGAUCCACAGACAACACGCACCCACACAGACACAGAGGGAAGGGGUUGGGAUGGGGACAGGGUGCUCAGCAGGGCGGGGUAGGACCCCAGCCCCUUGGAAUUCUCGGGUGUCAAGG`, the log2 enrichment was 1.88.
`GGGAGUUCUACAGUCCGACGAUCGUCCUGUGCUACACAUCGUAUGUACCGAAUCGGAAAAAGGAAAAAAAGGAAAAAAAGGAAAGUAUUAUGUUACGCCGUUCGGAUCUGCACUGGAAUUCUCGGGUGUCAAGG` has a log2 enrichment of -0.933.
The log2 enrichment of `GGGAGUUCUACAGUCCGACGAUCGUCCUGUGCUACACAUCGUAUGUACCGAAUCAAACCCCCCCAAACCCAAACCCCCAAAAAAGUAUUAUGUUACGCCGUUCGGAUCUGCACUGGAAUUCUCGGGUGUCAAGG` is reported as 0.048.
`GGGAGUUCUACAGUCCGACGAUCUCCUGUGCUACACAUCGUAUGUACCGAAUCGGGUUUUUUUGGGAAAAAAAGGGAAAGGGAAAGUAUUAUGUUACGCCGUUCGGAUCUGCAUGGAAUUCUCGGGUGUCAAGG` gave a log2 enrichment of -0.401.
`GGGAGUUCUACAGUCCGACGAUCGUCCUGUGCUACACAUCGUAUGUACCGAAUCGGGAAAAAGGGUUUUUGGGAAAAAGGGAAAGUAUUAUGUUACGCCGUUCGGAUCUGCACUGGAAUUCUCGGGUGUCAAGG` has a log2 enrichment of -0.611.
The log2 enrichment of `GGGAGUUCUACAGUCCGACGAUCGUCCUGUGCUACACAUCGUAUGUACCGAAUCGGGGAAAAAAAGGGGAGGGGAAAGGGGAAAGUAUUAUGUUACGCCGUUCGGAUCUGCACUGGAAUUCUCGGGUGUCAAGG` is reported as 0.436.
With `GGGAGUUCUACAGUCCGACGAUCUGUAACCUGGGGAUUCUCUCAACUCUCUUGUCCCACACAGACUUCUAUGAGGAAAUCCAGGAGUUUGUGAAAGAUGUCUUUUCACCUAUAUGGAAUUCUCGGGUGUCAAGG` the log2 enrichment was 0.0427.
`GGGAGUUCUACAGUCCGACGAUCUCCUGUGCUACACAUCGUAUGUACCGAAUCGGUUUUUUGGGGUUUUUUGGUUUUUUGGGGAAAGUAUUAUGUUACGCCGUUCGGAUCUGCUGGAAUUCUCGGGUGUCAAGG` has a log2 enrichment of -0.605.

Sample 2
Target: Histone acetyltransferase KAT6A, winged helix 2, GST fusion (KAT6A, Homo sapiens, UniProt Q92794, residues 85-181)
Technique: protein binding microarray
Molecule type: double-stranded DNA, one strand shown
Sample: in vitro
Concentration: not given
Setting: 8-mer, flanks averaged, mean of 2 arrays, mostly near background
Baseline: not given
Reading: higher = stronger binding
Construct (chain): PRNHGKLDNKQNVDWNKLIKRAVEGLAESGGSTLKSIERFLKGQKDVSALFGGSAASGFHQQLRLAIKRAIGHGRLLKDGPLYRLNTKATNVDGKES
`GTCATATA` gave an E-score of 0.0209.
With `CAAAGCTA` the E-score was 0.0506.
The E-score of `CGAAATTC` is reported as -0.0329.
With `GCAGGAGC` the E-score was 0.0508.
For `GTCCGCAA`, the E-score was -0.00342.
`AACTGGTG` has an E-score of -0.0728.
With `TAGGCCTA` the E-score was 0.00932.
With `CGAGCTCC` the E-score was 0.0103.
The E-score of `ATTATTCA` is reported as 0.0941.
`ACCCGGTA` has an E-score of -0.0699.
`AAAACTTG` gave an E-score of 0.13.
The E-score of `AGTCATTA` is reported as -0.217.
With `CAAAGAGA` the E-score was 0.17.
With `ACTCTGAA` the E-score was 0.0618.
For `AATCTTGC`, the E-score was 0.126.
`CAAGGGTG` has an E-score of -0.0539.
For `CAGCACAA`, the E-score was 0.161.
With `AACCAAGC` the E-score was 0.0608.
`CATTAAGG` gave an E-score of -0.0575.
`CCTTGCGA` has an E-score of 0.0101.
`ACTAAAGT` gave an E-score of -0.0352.
`TACGGACA` gave an E-score of -0.0709.

Sample 3
Target: RNA binding protein fox-1 homolog 2, RRM domain, GST-SBP tag (RBFOX2, Homo sapiens, UniProt O43251-10, residues 100-194)
Technique: RNA Bind-n-Seq
Molecule type: RNA
Sample: in vitro
Concentration: 365 nM
Setting: natural RNA segment, single round, ends assumed
Baseline: no-protein control
Reading: higher = stronger binding
Residues (chain): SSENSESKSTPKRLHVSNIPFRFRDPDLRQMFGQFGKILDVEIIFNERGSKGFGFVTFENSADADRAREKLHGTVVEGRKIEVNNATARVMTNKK
For `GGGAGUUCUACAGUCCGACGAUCAAGAGAACUCCAGGCUCAGCAUUCUGUUGAGUAACUUGCUACCUGCUCGGCUUUCCACUCUGCCAGGUCCACAUGGCAGGUGCCUCUCCUUCAUUUCUGGUGGCUUGGCUUGGAAUUCUCGGGUGCCAA`, “RBNS enrichment (R)” read 0.269.
For `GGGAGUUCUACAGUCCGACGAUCUCCAUAUCAGGCUUACCAAGAAUAUGUGCCCUGUUUUUACCCGAGAUUUCUCCACUUGCCUCAAGGCUGGGAACAAACUUCUGUUGGAAUUUUAAAUAGGAUUAUUUGCAUGGAAUUCUCGGGUGCCAA`, “RBNS enrichment (R)” read 0.732.
`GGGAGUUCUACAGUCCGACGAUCUGUUUCAGAAUUUUGUAUAUUGUAGGAAUCCUUUGAGAAUGUGAUUCCUUUUGAUGGGGAGAAAGGGCAAAUUAUUUUAAUAUUUUGUAUUUUCAACUUUAUAAAGAUAAUGGAAUUCUCGGGUGCCAA` — result for “RBNS enrichment (R)”: 0.724.
`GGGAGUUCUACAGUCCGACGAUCAGAAAACUGUAAGCUAACAUUUAAGAUGUUUCUUCUGGAAGGAAAGUGAGCAGGAACAAGUUAUAUUGCCACUGCUGUGGCAAAUUUUGGUGAACUUUUGGGGUCAUUAUUGGAAUUCUCGGGUGCCAA`: “RBNS enrichment (R)” 0.492.
For `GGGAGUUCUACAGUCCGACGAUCAGUUGUUUUUGUGUGGAAUCUUGUCUUUCCGUAUAAGUUGUAAGCUCCUUGAGAGCAGGAUCCAUGUCAUUCCUUUAUUUUUAUAAAUUAUUCCCCCUAUCAUUCCUUUAUGGAAUUCUCGGGUGCCAA`, “RBNS enrichment (R)” read 0.678.
Under “RBNS enrichment (R)”, `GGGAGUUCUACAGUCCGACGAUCAGGCUUAAUGAGCAUAGGUAGCUUGUCCAAGGUCUCAUGACCAGUCAAGGGCAAGCUGGAGUUAAUAAUCUAUAUUUAUUUGACUCAGCACUGUUUUCAUCACAACUUGUUGGAAUUCUCGGGUGCCAA` is recorded as 0.23.
`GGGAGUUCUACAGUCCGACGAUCACAGCUACCUGAGACGGGCAUCGCAGGAGUCUCUGCCACCCACUCAGGAUUGGGAAUUGUCUUUAGUGCCGGCUGUGGAGCAAAAGGCAGCUCACCCCUGGGCAGGCGGUUGGAAUUCUCGGGUGCCAA`: “RBNS enrichment (R)” 0.326.
`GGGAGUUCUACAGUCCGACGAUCUGAAUAAUGUUUACAUUCGUCCCCCGGGGAAAUGUAUGCUCAGCCACCAUUCAAGAGAUGACUGAGAAGGAGAUGGUAAGUUCAAGAAGACUGAUUGCACCUGGGACCCAUGGAAUUCUCGGGUGCCAA` — result for “RBNS enrichment (R)”: 1.93.
For `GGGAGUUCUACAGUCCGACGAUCUCUGCCCUUUAUCUCACACUCCCUAUCCUUGGCCCACUGCCAGUCCCUGCCUUGUGGCAAAGGGGCCCCAAAAGAAAAGCUGCCCUUCCCCAAAUGUAAGGACCCAGGUAUGGAAUUCUCGGGUGCCAA`, “RBNS enrichment (R)” read 1.14.
Under “RBNS enrichment (R)”, `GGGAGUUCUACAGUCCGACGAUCUCUCUUGUUGCCCAGGCUGGAGGGCAAUGGCGUGAUCUUGGCUCACUGCAACUUCCACCUCCUGGGUUCAAGUGAUUCUCCUGCCUCACUCCCAAGUAGCUGGGAUUACAUGGAAUUCUCGGGUGCCAA` is recorded as 0.48.
For `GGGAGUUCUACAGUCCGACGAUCAUUUUCUUUUAGUGAUACUGUUACCAGUGGCAGUUUGCUUUACAGAGGGGGAGCCCAGGUGGGAGAGAAAUGGGCUUGGGUUCCAUUCUCAGAAGUGAAUUGCAGACUGGUGGAAUUCUCGGGUGCCAA`, “RBNS enrichment (R)” read 1.01.
For `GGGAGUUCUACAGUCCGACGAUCUAUGUUGGGAAUGGUAAAAAGGUUUUCAAAUGGUUUAUUUUUCCUCUUUUAUAAAUAAGUUUUACAAAAUUUUCCUCUUUUGUUUAUUGACUAGAUUGUAUAUAAUUUUCUGGAAUUCUCGGGUGCCAA`, “RBNS enrichment (R)” read 1.55.

Sample 4
Target: Sal-like protein 4, full length isoform B (SALL4, Homo sapiens, UniProt Q9UJQ4-2, residues 1-616)
Technique: universal PBM
Molecule type: double-stranded DNA, one strand shown
Sample: in vitro
Concentration: not given
Setting: 8-mer, flanks averaged, mean of replicates
Reading: higher = stronger binding
Residues (chain): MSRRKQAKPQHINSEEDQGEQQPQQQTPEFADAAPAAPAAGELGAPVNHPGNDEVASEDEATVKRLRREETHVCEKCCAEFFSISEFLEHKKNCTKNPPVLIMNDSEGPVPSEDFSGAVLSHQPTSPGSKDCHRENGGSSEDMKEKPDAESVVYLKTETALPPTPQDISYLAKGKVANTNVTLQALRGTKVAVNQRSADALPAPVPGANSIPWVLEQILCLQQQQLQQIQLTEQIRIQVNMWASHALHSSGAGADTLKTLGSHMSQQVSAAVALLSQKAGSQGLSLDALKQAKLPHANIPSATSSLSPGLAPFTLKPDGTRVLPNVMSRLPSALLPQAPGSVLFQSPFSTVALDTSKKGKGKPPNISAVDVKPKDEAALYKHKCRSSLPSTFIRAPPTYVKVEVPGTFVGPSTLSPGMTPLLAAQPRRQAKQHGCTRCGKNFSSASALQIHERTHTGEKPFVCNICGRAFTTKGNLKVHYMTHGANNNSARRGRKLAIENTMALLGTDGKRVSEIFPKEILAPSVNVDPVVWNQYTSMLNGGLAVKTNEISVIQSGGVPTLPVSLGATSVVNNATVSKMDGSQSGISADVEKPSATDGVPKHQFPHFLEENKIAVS
`TCGAGGAA` gave an E-score of -0.0548.
For `ATGGTTTA`, the E-score was 0.256.
For `CTCGGCGA`, the E-score was -0.243.
With `AGATTTAT` the E-score was 0.279.
`GCAGAGTA` has an E-score of 0.0604.
The E-score of `GACGCAGA` is reported as -0.224.
`GTTCTCCA` gave an E-score of -0.0838.
`ACATTGGC` has an E-score of 0.0508.
The E-score of `ACAGCCGA` is reported as -0.0806.
With `CTCTCCTC` the E-score was -0.225.
`AGATCGTG` has an E-score of -0.0322.
For `AGTGTGTG`, the E-score was -0.0401.
The E-score of `GCTTTACA` is reported as 0.0801.
`ACCCCCGC` has an E-score of -0.284.
`GCGGAACA` gave an E-score of -0.195.
The E-score of `CAATGCGA` is reported as -0.0179.
`CTCTGGTA` gave an E-score of 0.0306.
With `CCTTCATC` the E-score was -0.171.
`CGAGCTAA` gave an E-score of -0.166.
The E-score of `TACTCCTA` is reported as 0.117.
With `ATTAAAAA` the E-score was 0.385.
With `CACGCCGA` the E-score was -0.35.
With `CACAAGCC` the E-score was -0.194.
The E-score of `CAACCACG` is reported as -0.118.
The E-score of `GCAAATAA` is reported as 0.213.

For quick reference, copied from above (sample 4):
The E-score of `GACGCAGA` is reported as -0.224.
`GTTCTCCA` gave an E-score of -0.0838.
`ACATTGGC` has an E-score of 0.0508.
The E-score of `ACAGCCGA` is reported as -0.0806.
With `CTCTCCTC` the E-score was -0.225.
